Published values from different studies.
“And” joins repeats or separate records; there may be more than shown.
Cell line: UACC-62

The cell growth of `Cc1n[nH]c2nc(-c3ccc(Cl)cc3)c3c(NC(=O)c4ccccc4)nnc-3n12` is reported as 105% (SRB; 10 µM, NCI60 single-dose screen; reference: untreated).
`Cn1cncc1C1=CN(c2ncnc3[nH]cnc23)CCS1` has a GI50 of 9.8 µM (melanoma cell line).
The growth percent of `COc1ccc(OC)c(-c2nc3ccc(-c4nc5ccc(N6CCN(C)CC6)cc5[nH]4)cc3[nH]2)c1` is reported as 104% (SRB; 10 µM, 48 h).
The growth percentage of `Cc1cc(=O)[nH]c(=O)n1Cc1cn(-c2cc3ccccc3oc2=O)nn1` is reported as 98% (NCI60 single-dose screen; 10 µM).
`C#C[C@@]1(O)[C@@H](CO)O[C@@H](n2ccc3c(N)ncnc32)[C@@H]1O` gave a TGI of 4.48 µM (SRB; NCI-60 screen).
With `O=C(Nc1nnc2n3c(nc(-c4ccc(Cl)cc4)c1-2)SCC3=O)c1ccccc1` the cell growth was 99.1% (SRB; 10 µM, NCI60 single-dose screen; reference: untreated).
`CCCC(CCC)C(=O)OCc1cn(-c2c3ccccc3nc3ccccc23)nn1` gave a growth percentage of 87.7% (NCI60 single-dose screen; 10 µM).
For `CCCCN1CCN(c2ccc3[nH]c(-c4ccc5[nH]c(-c6cc(OC)c(OC)c(OC)c6)nc5c4)nc3c2)CC1`, the growth percent was 39.5% (SRB; 10 µM, 48 h).
`CCN(CC)c1ccc(C=NNC(=O)CSc2nc3ccccc3c(=O)n2Cc2ccc(S(N)(=O)=O)cc2)c(O)c1` gave a TGI of 5.44 µM (NCI five-dose screen).
For `CN1CCN(c2ccc3[nH]c(-c4ccc5[nH]c(-c6ccc(C(F)(F)F)cc6)nc5c4)nc3c2)CC1`, the growth percent was 67.5% (SRB; 10 µM, 48 h).
`C#C[C@@]1(O)[C@@H](CO)O[C@@H](n2cc(Br)c3c(N)ncnc32)[C@@H]1O` gave a TGI of 11.8 µM and 12.9 µM (SRB; NCI-60 screen).
For `CCCN1CCN(c2ccc3[nH]c(-c4ccc5[nH]c(-c6ccc(OCC)c(OCC)c6)nc5c4)nc3c2)CC1`, the growth percent was -85% (SRB; 10 µM, 48 h).
With `O=C(Nc1nnc2[nH]c(=S)[nH]c(-c3ccc(Cl)cc3)c1-2)c1ccccc1` the cell growth was 101% (SRB; 10 µM, NCI60 single-dose screen; reference: untreated).
With `O=C(/C=C/C=C/C=C/C1CCCCC1)NC1=C[C@@](O)(/C=C/C=C/C=C/C(=O)NC2=C(O)CCC2=O)[C@@H]2O[C@@H]2C1=O` the GI50 was 14.2 µM (cell growth, CellTiter-Glo; 78 h).
`O=C(Nc1nnc2n3c(Cc4ccccc4)n[nH]c3nc(-c3ccc(Cl)cc3)c1-2)c1ccccc1` has a cell growth of 102% (SRB; 10 µM, NCI60 single-dose screen; reference: untreated).
For `CCCCN1CCN(c2ccc3nc(-c4ccc5nc(-c6cc(OC)ccc6OC)[nH]c5c4)[nH]c3c2)CC1`, the growth percent was 109% (SRB; 10 µM, 48 h).
With `Cc1cc(=O)[nH]n1-c1nc(-c2ccc(Cl)cc2)c2c(NC(=O)c3ccccc3)nnc-2[nH]1` the cell growth was 81.1% (SRB; 10 µM, NCI60 single-dose screen; reference: untreated).
`O=c1ccn(Cc2cn(-c3cc4ccccc4oc3=O)nn2)c(=O)[nH]1` has a growth percentage of 96.8% (NCI60 single-dose screen; 10 µM).
For `NNc1nc(-c2ccc(Cl)cc2)c2c(NC(=O)c3ccccc3)nnc-2[nH]1`, the cell growth was 102% (SRB; 10 µM, NCI60 single-dose screen; reference: untreated).
With `O=C1NC(c2ccccc2)(c2ccccc2)C(=O)N1Cc1cn(-c2cc3ccccc3oc2=O)nn1` the growth percentage was 79.3% (NCI60 single-dose screen; 10 µM).
With `CCCN1CCN(c2ccc3nc(-c4ccc5nc(-c6cc(OC)ccc6OC)[nH]c5c4)[nH]c3c2)CC1` the growth percent was 110% (SRB; 10 µM, 48 h).
